# Published values pooled from the literature.
# Each line is one published result; not all experiments were run side by side. Numbers after ± are the reported error. Where no end group is shown, it is not given here.
Substance,organism,test,system,setting,scale,quantity,result
TAVDHVFLRF-NH2 (C-amide),Drosophila melanogaster,gut contraction,adult gut,"1 µM, within 10 min",baseline: DMS effect,inhibition,100%
CC[C@H](C)[C@H](NC(=O)[C@H](CC(C)C)NC(=O)[C@H](Cc1c[nH]cn1)NC(=O)[C@H](Cc1c[nH]cn1)NC(=O)[C@@H](NC(=O)[C@H](Cc1ccccc1)NC(=O)[C@H](Cc1c[nH]cn1)NC(=O)[C@H](Cc1c[nH]c2ccccc12)NC(=O)[C@@H](NC(=O)[C@H](Cc1c[nH]cn1)NC(=O)[C@H](Cc1c[nH]cn1)NC(=O)[C@H](Cc1c[nH]c2ccccc12)NC(=O)[C@@H](N)CC(C)C)[C@@H](C)CC)C(C)C)C(N)=O,herpes simplex virus 1,"intracellular virus, plaque","Vero, F","concentration not given, 24 h post-infection, added after entry",,infectivity reduction,77.7%
PTAAGV,rhesus rotavirus,viral replication,"peptide, mouse cholangiocytes","concentration not given, 18 h, 37 °C",,viral yield,no effect
CC[C@H](C)[C@H](NC(=O)[C@H](CCCCN)NC(=O)[C@H](Cc1c[nH]c2ccccc12)NC(=O)[C@H](Cc1c[nH]c2ccccc12)NC(=O)[C@H](CCCCN)NC(=O)[C@H](CCCCN)NC(=O)[C@H](CCCCN)NC(=O)[C@H](Cc1c[nH]c2ccccc12)NC(=O)[C@H](CCCCN)NC(=O)[C@H](CCCCN)NC(=O)[C@H](Cc1c[nH]c2ccccc12)NC(=O)[C@H](CCCCN)NC(=O)[C@H](CCCCN)NC(=O)[C@@H](NC(=O)[C@@H](NC(=O)[C@H](CCCCN)NC(=O)[C@@H](N)CCCNC(=N)N)[C@@H](C)CC)[C@@H](C)CC)C(=O)N[C@@H](Cc1c[nH]c2ccccc12)C(=O)N[C@@H](Cc1c[nH]c2ccccc12)C(=O)N[C@@H](CCCCN)C(=O)NCCOCCOCC(N)=O,Klebsiella pneumoniae,"membrane permeabilization, flow cytometry",9409,4 µM,,PI-positive cells,79.3%
CP(=O)(O)CCC(N)C(=O)O (stereo not drawn),Digitaria sanguinalis,,,"60 g/ha, 13 days, DIGSA, post-emergence spray","baseline: untreated (0%), complete kill (100%)",herbicidal activity,80%
C[C@@H]1CC[C@H]2[C@@H](C)C(=O)O[C@@H]3O[C@@]4(C)CC[C@@H]1[C@]32OO4,Leishmania tarentolae,"viability, resazurin","promastigotes, Schneider's medium","48 h, 26 °C, added: 6 µM hemin",,IC50,1.49 ± 0.94 µM
O=C(CN1c2c(n[nH]c2-c2cccc(Cl)c2)-c2ccccc2S1(=O)=O)NN=Cc1ccc(Cl)cc1,HIV-1,viral replication,PBMC,,,EC90,27.1 µM
CC(C)(O/N=C(\C(=O)N[C@@H]1C(=O)N2C(C(=O)[O-])=C(C[n+]3ccccc3)CS[C@H]12)c1csc(N)n1)C(=O)O,Klebsiella pneumoniae,,drug-resistant,"512 µg/mL, added: TS-CATH 16 µg/mL",,time to complete kill,≤ 4 h
CCCCCCOc1c(OC)cc(NC(C)CCCNC(=O)C(N)CCSC)c2nc(C(C)(C)C)ccc12 (stereo not drawn),Staphylococcus aureus,microbial killing,ATCC33591 MRSA,drug-resistant strain,,MBC,20 µg/mL
O=C(/C=C/c1ccccc1)N/N=C/c1ccccc1,"Candida albicans, Aspergillus niger",fungal growth,,,,MIC,17.8 µM
Cc1oc(-c2ccc(Cl)cc2)nc1CN1CCC(C(=O)NCCCN2CCCC2=O)CC1,Hepatitis C virus,"HCV infection, Gaussia luciferase reporter",Huh7.5.1 reporter cells,,"baseline: 10 µM cyclosporin A, DMSO, negative means inhibition",maximal response,-38.6%
CCCCOc1c(OC)cc(NC(C)CCCN)c2nc(C(C)(C)C)cc(C)c12 (stereo not drawn),Staphylococcus aureus,microbial killing,ATCC33591 MRSA,drug-resistant strain,,MBC,5 µg/mL
ADVDHVFLRF-NH2 (C-amide),Drosophila melanogaster,heart rate,wandering third instar larval heart,"40 nL injected, 1 µM, 10 min",baseline: DMS,inhibition,64%
OCCn1c(Cl)nc2cc(Br)c(Br)cc21,Human immunodeficiency virus 1,"viral replication, inhibitor",TZM-bl,1 µg/mL,,inhibition,14.9%
CCCCCCOc1c(OC)cc(NC(C)CCCNC(=O)C(C)N)c2nc(C(C)(C)C)ccc12 (stereo not drawn),Staphylococcus aureus,,MRSA ATCC 33591,,,MBC,> 20 µg/mL
